Literature values as cited in several papers.
Each line is one published result; not all experiments were run side by side. Numbers after ± are the reported error.

For CC(C)=CCC/C(C)=C\CCn1cc(CC(P(=O)(O)O)P(=O)(O)O)nn1, the IC50 was 75 nM (geranylgeranyl diphosphate synthase; enzyme activity, inhibitor).
CCCN(C)c1ccc(C(=O)C=C(O)C(F)(F)C(F)(F)F)cn1 has an IC50 of 350 ± 800 nM (Plasmodium falciparum formate-nitrite transporter; L-lactate transport, inhibitor, radiolabelled uptake; yeast).
With C[C@H](CN(C)Cc1ccccc1)NC(=O)c1ccc(-c2noc(C(F)(F)F)n2)cc1 the IC50 was 0.08 ± 0.02 nM (HDAC4).
With CCc1ccc(-c2cc(C(N)=O)c(NC3CCC(O)CC3)cc2C)cc1 (stereo not shown) the IC50 was greater than 50000 nM (Hsp90α human).
With CCCCCCCCCCCCCC(=O)N[C@H](CO)[C@H](O)c1ccc([N+](=O)[O-])cc1 the IC50 was roughly 10000 nM (acid ceramidase; enzyme activity, radiometric; HaCaT).
COc1nc(-c2cc(C)c(NC(C)c3ccc(F)cc3)nn2)ccc1-n1cnc(C)c1 (stereo not shown) has an IC50 of greater than 25000 nM (Notch; inhibitor).
The IC50 of Cc1[nH]c(=O)c(CNC(=O)c2cc(Cl)c3c(c2C)O[C@@](C)([C@H]2CC[C@H](N(C)C)CC2)O3)c(C)c1O is reported as 240 nM (EZH1; enzyme activity, inhibitor).
For COc1cccc(-c2cc(F)ccc2[C@H]2Cc3nc(N)nc(C)c3C(=O)N2)n1, the IC50 was 8.5 nM (Grp94; inhibitor).
CC(C)NCCCn1c(Sc2cc(Cl)cc(Cl)c2)nc2c(N)ncnc21 has an IC50 of 27300 nM (Hsp90α; inhibitor).
CCCCCCCCCCCCCC(=O)N[C@H](C)[C@@H](O)c1ccccc1 has an IC50 of greater than 500000 nM (acid ceramidase; radiometric; HL-60 and HaCaT).
O=C(C=C(O)C(F)(F)C(F)(F)F)c1ccoc1 gave an IC50 of 100 ± 10 nM (Plasmodium falciparum formate-nitrite transporter; L-lactate transport, inhibitor, radiolabelled uptake; yeast).
For CN(C)c1ccc(C(=O)N2CCC(n3cncc3-c3ccc(OS(=O)(=O)c4cccc5cnccc45)cc3)CC2)cc1, the IC50 was 0.11 ± 0.04 nM (P2X7 receptor; fluorescence).
COc1ccc(C)cc1S(=O)(=O)Nc1ccc(Cl)c(N2CCCS2(=O)=O)c1 has an IC50 of roughly 10000 nM (urea transporter B (UT-B); urea transport, inhibitor).
For CC(C)=CCC/C(C)=C\CCn1cc(CC(C)(P(=O)(O)O)P(=O)(O)O)nn1, the IC50 was 86 nM (geranylgeranyl diphosphate synthase; enzyme activity, inhibitor).
For O=C(CCc1ccc(C(F)(F)F)cc1)N[C@H]1CCOC1=O, the IC50 was 2000 nM (LuxR; reporter gene, luxI-luxCDABE reporter).
The IC50 of c1cc(-c2nnc3scnn23)ccn1 is reported as 710 nM (OCRL; enzyme activity, inhibitor).
For CN(CCN)Cc1ccccc1Sc1ccccc1Cl, the IC50 was 1.1 nM (PRMT1; enzyme activity, inhibitor, AlphaLISA).
For O=C(CCc1ccc(Br)cc1)N[C@H]1CCOC1=O, the IC50 was 1000 nM (TraR; traI-lacZ reporter, inhibitor).
For CCNc1ccc(C(=O)C=C(O)C(F)(F)C(F)(F)F)cn1, the IC50 was 120 ± 10 nM (Plasmodium falciparum formate-nitrite transporter; L-lactate transport, inhibitor, radiolabelled uptake; yeast).
The IC50 of CCCCCCCC/C=C\CCCCCCCC(=O)N[C@H](CCCCN)C(=O)O is reported as 25 nM (glycine transporter 2; glycine uptake).
With O=C(CCCOc1ccc(Cl)cc1)N[C@H]1CCOC1=O the IC50 was 2000 nM (CviR, Chromobacterium violaceum; reporter gene, antagonist, vioA-gfp reporter).
For COC(F)(F)C(F)(F)C(O)=CC(=O)c1cccnc1, the IC50 was 310 ± 10 nM (Plasmodium falciparum formate-nitrite transporter; L-lactate transport, inhibitor, radiolabelled uptake; yeast).
CCCc1cc2cc(-n3nc(CC)c4c3CC(C)(C)CC4=O)cc(NC3CCC(O)CC3)c2c(=O)[nH]1 (stereo not shown) has an IC50 of greater than 10000 nM (Hsp90α human).
The IC50 of CCCOc1ccc(C=C2C(=O)NN(c3ccccc3)C2=O)c2cnccc12 is reported as 10 nM (P2Y12 receptor).
CC(C)CCN(C(=O)CCCCCCC(=O)NO)c1ncc(C(=O)NCCCn2ccnc2)s1 gave an IC50 of 15 nM (NAMPT).
For COc1cc(CNc2ccc(C(=O)C=C(O)C(F)(F)C(F)(F)F)cn2)cc(OC)c1OC, the IC50 was 2110 ± 320 nM (Plasmodium falciparum formate-nitrite transporter; L-lactate transport, inhibitor, radiolabelled uptake; yeast).
N=C(N)c1ccc(OCCCCCCCCCCOc2ccc(C(=N)N)cc2)cc1 gave an IC50 of 43000 nM (PRMT5).
O=C(Cc1ccc(Br)cc1)N[C@H]1CCOC1=O gave an IC50 of 4000 nM (LuxR; reporter gene, luxI-luxCDABE reporter).
COc1cc2ncc3[nH]c(=O)n([C@H](C)c4ccccn4)c3c2cc1-c1c(C)noc1C has an IC50 of 500 nM (BRD2).
The IC50 of CCc1c(-c2cccc(NNC(=O)[C@H](C)c3cc(F)cc(F)c3)c2)ccc(O)c1C is reported as 3350 nM (SGK1; literature value).
With Cc1cc(OC(C)C)cc(C)c1C(=O)N[C@@H](CNC(=O)NNC(=O)c1cccc(NC(=N)N)c1)C(=O)O the IC50 was 0.96 nM (integrin α5β1; binding, solid-phase binding).
O=C(C=C(O)C(F)(F)C(F)(F)F)c1ccc(NC2CC2)nc1 gave an IC50 of 190 ± 20 nM (Plasmodium falciparum formate-nitrite transporter; L-lactate transport, inhibitor, radiolabelled uptake; yeast).
The IC50 of CN(C)C/C=C/C(=O)Nc1ccc(C(=O)Nc2cccc(Nc3cc(-c4c[nH]c5ccccc45)ncn3)c2)cc1 is reported as less than 320 nM (BRK kinase (PTK6); enzyme activity, inhibitor).
With COc1cccc(CNC(=O)c2ccc3cccc(O)c3n2)c1 the IC50 was roughly 5300 nM (urea transporter UT-A1; inhibitor).
CC(=O)Nc1ccc(C(=O)C=C(O)C(F)(F)C(F)(F)F)cn1 has an IC50 of 210 ± 10 nM (Plasmodium falciparum formate-nitrite transporter; L-lactate transport, inhibitor, radiolabelled uptake; yeast).
Cc1ccc(Cn2cc(CNC3=C(Cl)C(=O)c4cccnc4C3=O)nn2)cc1 has an IC50 of 90 nM (CDC25C).
The IC50 of Cc1cc(=O)n(C)c2cc(N3C(=O)CC[C@@H](NS(=O)(=O)CC(C)C)[C@@H]3c3ccccc3)ccc12 is reported as 5000 nM (BRD9 bromodomain; binding).
O=C(C=C(O)C(F)(F)C(F)(F)F)c1ccc(NC(=O)c2ccccc2)nc1 gave an IC50 of 370 ± 20 nM (Plasmodium falciparum formate-nitrite transporter; L-lactate transport, inhibitor, radiolabelled uptake; yeast).
For CCc1cccc(Sc2cc(C(=O)N3Cc4ccccc4C3)ccc2O)c1, the IC50 was 33900 nM (Grp94).
For CS(=O)(=O)Nc1ccc(-c2cncc(-c3cccc4cc[nH]c34)c2)cc1, the IC50 was 9400 nM (PI5P4Kβ; inhibitor).
For CC(C)c1cc(C(=O)N2Cc3ccccc3C2)c(O)c2cnoc12, the IC50 was 5000 nM (Grp94).
With COc1cccc(/C=C2/SC(=N)NC2=O)c1OC the IC50 was roughly 43000 nM (urea transporter B (UT-B); urea transport, inhibitor).
The IC50 of Cc1nn(C)c2c(C(C(=O)O)N3CC(OCCCCc4ccc5c(n4)NCCC5)C3)cccc12 (stereo not shown) is reported as 40 nM (integrin α5β1; cell-based).

Repeated from above:
With COc1cccc(CNC(=O)c2ccc3cccc(O)c3n2)c1 the IC50 was roughly 5300 nM (urea transporter UT-A1; inhibitor).
CC(=O)Nc1ccc(C(=O)C=C(O)C(F)(F)C(F)(F)F)cn1 has an IC50 of 210 ± 10 nM (Plasmodium falciparum formate-nitrite transporter; L-lactate transport, inhibitor, radiolabelled uptake; yeast).
Cc1ccc(Cn2cc(CNC3=C(Cl)C(=O)c4cccnc4C3=O)nn2)cc1 has an IC50 of 90 nM (CDC25C).
The IC50 of Cc1cc(=O)n(C)c2cc(N3C(=O)CC[C@@H](NS(=O)(=O)CC(C)C)[C@@H]3c3ccccc3)ccc12 is reported as 5000 nM (BRD9 bromodomain; binding).
O=C(C=C(O)C(F)(F)C(F)(F)F)c1ccc(NC(=O)c2ccccc2)nc1 gave an IC50 of 370 ± 20 nM (Plasmodium falciparum formate-nitrite transporter; L-lactate transport, inhibitor, radiolabelled uptake; yeast).
